{"data": "Measurements collected from several papers", "note": "Parts stem from different laboratories: compare values within a part only. Substitutions count along the parent as printed.", "UniProt P08069, sequence (whole entry, looked up)": "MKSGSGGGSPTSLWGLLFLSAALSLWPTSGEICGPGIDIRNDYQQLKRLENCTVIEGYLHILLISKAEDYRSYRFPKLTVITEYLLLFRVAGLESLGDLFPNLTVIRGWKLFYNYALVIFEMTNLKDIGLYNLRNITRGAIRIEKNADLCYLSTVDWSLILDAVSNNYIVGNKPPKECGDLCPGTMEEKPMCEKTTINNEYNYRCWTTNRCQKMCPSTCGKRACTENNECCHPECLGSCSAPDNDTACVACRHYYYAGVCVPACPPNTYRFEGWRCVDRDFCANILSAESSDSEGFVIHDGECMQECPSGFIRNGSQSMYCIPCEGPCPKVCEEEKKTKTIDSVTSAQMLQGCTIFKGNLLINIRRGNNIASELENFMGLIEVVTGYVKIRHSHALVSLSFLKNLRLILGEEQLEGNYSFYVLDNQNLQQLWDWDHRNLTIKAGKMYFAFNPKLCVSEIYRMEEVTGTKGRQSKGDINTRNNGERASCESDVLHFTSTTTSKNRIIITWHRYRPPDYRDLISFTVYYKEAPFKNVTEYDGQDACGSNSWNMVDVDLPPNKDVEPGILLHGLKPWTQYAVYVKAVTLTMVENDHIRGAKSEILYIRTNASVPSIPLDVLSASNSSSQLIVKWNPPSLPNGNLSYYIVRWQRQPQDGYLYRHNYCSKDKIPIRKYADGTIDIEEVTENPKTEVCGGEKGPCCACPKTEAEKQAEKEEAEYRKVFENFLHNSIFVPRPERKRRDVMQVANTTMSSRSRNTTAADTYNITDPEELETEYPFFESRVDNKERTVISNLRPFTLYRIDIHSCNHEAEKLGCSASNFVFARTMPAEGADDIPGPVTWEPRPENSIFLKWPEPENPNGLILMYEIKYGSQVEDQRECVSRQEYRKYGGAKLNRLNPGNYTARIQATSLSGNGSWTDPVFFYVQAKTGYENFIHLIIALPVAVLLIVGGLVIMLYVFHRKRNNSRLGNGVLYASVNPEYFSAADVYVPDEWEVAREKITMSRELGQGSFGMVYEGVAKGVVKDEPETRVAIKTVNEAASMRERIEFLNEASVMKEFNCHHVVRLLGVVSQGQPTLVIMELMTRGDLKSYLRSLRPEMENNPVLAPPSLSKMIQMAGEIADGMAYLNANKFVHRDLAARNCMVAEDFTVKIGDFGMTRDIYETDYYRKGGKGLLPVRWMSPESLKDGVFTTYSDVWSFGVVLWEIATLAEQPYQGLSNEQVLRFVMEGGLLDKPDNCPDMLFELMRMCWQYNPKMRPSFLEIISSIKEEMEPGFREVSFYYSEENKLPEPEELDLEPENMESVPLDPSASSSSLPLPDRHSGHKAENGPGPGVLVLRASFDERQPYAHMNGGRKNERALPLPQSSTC", "UniProt P41145, sequence (whole entry, looked up)": "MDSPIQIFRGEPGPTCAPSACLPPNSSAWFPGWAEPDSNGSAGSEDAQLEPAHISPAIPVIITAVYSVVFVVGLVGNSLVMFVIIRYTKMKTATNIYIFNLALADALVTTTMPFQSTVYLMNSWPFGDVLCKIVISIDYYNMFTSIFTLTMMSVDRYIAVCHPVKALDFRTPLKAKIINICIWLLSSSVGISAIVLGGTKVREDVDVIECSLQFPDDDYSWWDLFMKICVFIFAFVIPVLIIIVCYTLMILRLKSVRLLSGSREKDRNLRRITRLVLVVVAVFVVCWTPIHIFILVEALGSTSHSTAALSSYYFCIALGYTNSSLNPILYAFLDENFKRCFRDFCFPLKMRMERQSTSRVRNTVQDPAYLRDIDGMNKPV", "UniProt P30530, sequence (whole entry, looked up)": "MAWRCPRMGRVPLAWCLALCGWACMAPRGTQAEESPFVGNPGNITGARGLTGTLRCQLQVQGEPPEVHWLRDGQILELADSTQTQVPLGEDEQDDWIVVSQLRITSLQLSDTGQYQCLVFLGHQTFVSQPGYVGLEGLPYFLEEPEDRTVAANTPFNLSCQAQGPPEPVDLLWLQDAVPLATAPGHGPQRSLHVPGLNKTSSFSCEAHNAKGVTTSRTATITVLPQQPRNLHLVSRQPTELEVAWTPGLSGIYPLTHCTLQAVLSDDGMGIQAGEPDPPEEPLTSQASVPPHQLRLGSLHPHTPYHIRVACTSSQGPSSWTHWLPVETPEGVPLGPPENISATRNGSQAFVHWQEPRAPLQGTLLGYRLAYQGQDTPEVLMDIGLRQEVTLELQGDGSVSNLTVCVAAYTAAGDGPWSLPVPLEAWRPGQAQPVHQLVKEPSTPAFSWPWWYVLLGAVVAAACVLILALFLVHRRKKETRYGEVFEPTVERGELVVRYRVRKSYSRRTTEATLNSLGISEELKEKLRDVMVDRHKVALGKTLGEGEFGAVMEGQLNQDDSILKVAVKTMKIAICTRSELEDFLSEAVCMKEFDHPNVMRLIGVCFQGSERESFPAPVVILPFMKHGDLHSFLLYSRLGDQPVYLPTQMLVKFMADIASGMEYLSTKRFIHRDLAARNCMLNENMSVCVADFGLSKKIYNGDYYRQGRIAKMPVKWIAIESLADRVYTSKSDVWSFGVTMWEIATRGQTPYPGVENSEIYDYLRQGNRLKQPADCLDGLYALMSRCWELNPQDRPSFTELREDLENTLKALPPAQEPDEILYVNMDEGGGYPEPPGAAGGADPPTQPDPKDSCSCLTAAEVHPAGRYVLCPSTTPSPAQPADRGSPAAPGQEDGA", "UniProt P11229, sequence (whole entry, looked up)": "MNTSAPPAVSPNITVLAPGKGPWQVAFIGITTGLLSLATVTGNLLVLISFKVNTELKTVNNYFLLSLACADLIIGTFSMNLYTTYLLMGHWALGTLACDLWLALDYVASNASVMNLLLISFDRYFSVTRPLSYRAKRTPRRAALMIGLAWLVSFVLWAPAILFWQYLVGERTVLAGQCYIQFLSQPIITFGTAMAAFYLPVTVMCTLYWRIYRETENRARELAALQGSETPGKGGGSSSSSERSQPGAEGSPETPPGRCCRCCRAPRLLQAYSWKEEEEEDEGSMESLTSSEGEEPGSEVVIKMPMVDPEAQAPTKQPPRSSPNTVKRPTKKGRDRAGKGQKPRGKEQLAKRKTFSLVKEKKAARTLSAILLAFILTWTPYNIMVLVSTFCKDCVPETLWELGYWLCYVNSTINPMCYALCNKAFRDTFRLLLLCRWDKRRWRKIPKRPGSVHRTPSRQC", "UniProt P28335, sequence (whole entry, looked up)": "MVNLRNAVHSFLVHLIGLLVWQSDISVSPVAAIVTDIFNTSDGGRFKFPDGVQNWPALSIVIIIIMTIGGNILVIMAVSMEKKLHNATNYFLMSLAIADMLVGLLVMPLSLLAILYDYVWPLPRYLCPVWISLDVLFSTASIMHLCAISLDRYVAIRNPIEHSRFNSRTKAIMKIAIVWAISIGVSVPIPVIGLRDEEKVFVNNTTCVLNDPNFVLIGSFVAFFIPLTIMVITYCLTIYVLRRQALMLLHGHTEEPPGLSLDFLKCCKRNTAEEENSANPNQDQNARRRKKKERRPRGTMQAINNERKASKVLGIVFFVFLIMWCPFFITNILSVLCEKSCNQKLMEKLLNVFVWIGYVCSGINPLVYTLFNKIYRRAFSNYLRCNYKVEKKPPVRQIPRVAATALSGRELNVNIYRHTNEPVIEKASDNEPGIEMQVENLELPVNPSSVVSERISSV", "UniProt P00519, sequence (whole entry, looked up)": "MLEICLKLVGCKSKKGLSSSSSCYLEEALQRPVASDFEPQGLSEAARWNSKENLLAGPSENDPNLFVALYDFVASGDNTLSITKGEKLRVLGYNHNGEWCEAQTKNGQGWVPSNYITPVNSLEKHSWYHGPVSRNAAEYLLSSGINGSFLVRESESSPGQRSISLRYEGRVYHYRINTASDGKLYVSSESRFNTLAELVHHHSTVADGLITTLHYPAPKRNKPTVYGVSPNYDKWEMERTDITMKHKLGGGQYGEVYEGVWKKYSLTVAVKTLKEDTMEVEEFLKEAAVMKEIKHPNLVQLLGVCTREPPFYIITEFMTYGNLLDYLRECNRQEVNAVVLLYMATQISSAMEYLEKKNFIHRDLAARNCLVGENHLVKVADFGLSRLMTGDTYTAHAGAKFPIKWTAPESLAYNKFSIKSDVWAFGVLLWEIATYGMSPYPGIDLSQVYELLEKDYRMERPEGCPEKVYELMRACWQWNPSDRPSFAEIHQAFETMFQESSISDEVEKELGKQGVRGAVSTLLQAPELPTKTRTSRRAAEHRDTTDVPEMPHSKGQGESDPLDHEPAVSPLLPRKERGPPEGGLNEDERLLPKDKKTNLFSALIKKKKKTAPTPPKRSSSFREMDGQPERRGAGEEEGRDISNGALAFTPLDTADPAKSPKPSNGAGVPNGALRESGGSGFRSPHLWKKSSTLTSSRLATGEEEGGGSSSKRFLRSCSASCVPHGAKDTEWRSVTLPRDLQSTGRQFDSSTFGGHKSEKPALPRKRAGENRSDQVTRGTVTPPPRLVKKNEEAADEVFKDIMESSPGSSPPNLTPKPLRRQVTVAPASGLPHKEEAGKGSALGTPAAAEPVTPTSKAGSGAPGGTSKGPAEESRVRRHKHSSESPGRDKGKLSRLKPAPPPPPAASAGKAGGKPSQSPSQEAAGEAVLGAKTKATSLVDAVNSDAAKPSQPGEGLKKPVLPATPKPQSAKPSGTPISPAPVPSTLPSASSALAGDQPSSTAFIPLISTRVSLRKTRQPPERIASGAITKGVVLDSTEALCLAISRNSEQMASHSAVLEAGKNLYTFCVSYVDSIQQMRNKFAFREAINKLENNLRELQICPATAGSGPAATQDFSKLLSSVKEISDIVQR", "UniProt P41146, sequence (whole entry, looked up)": "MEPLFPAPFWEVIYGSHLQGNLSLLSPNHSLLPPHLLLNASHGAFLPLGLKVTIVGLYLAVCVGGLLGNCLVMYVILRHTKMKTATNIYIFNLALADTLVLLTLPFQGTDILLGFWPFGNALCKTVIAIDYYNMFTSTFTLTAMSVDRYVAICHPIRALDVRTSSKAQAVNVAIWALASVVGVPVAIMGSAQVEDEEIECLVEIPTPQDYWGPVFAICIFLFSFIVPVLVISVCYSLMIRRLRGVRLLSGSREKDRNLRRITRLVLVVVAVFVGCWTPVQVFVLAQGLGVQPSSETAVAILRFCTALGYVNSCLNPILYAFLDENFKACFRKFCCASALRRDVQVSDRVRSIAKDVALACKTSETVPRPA"}
{"data": "Block 1", "target": "vanadate, free oxyanion", "method": "microfluidic competitive inhibition", "sample": "in vitro, cell-free expressed", "concentration": "not given", "notes": "derived from inhibition constants, unchanged parent 676 nM", "reading": "lower = stronger binding", "starting sequence": "PafA, mature enzyme, eGFP fusion (Elizabethkingia meningoseptica, UniProt Q9KJX5); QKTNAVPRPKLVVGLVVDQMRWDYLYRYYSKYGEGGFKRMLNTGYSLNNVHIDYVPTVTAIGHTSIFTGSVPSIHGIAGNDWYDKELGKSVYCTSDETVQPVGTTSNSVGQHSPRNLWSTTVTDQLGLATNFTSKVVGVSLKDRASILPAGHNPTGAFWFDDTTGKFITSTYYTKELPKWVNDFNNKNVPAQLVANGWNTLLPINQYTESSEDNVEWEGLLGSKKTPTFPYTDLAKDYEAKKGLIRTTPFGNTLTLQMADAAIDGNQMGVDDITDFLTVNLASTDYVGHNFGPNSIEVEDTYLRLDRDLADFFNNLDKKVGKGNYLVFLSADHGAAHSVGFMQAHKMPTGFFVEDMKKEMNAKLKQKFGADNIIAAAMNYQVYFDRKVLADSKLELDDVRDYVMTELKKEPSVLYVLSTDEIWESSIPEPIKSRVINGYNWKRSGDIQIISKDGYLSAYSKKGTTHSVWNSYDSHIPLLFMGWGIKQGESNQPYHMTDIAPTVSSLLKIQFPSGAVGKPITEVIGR"}
{"Substitution": "E395V", "oxyanion analog dissociation constant": "629 nM"}
{"Substitution": "K85G", "oxyanion analog dissociation constant": "793 nM"}
{"Substitution": "F160V", "oxyanion analog dissociation constant": "510 nM"}
{"Substitution": "A335V", "oxyanion analog dissociation constant": "984 nM"}
{"Substitution": "A78V", "oxyanion analog dissociation constant": "692 nM"}
{"Substitution": "T3G", "oxyanion analog dissociation constant": "602 nM"}
{"Substitution": "L117G", "oxyanion analog dissociation constant": "472 nM"}
{"Substitution": "L396G", "oxyanion analog dissociation constant": "558 nM"}
{"data": "Block 2", "Compound": "CC(=O)Nc1c(C(C)=O)c(=O)n(C)c2nc(-c3ccc(Cl)cc3Cl)c(-c3ccc(Cl)cc3)cc12", "observed": "cell-free assay", "concentration": "10 µM"}
{"target": "OPRD1 (Homo sapiens, UniProt P41143)", "inhibition": "-2.35%"}
{"target": "CHRM1 (Homo sapiens, UniProt P11229)", "inhibition": "-3.7%"}
{"target": "OPRM1 (Homo sapiens, UniProt P35372)", "inhibition": "8.16%"}
{"target": "HTR2A (Homo sapiens, UniProt P28223)", "inhibition": "21.8%"}
{"target": "HTR2C (Homo sapiens, UniProt P28335)", "inhibition": "17.5%"}
{"target": "CHRM3 (Homo sapiens, UniProt P20309)", "inhibition": "-6.59%"}
{"target": "Nociceptin receptor (OPRL1, Homo sapiens, UniProt P41146)", "inhibition": "-68.2%"}
{"target": "OPRK1 (Homo sapiens, UniProt P41145)", "inhibition": "7.95%"}
{"target": "DRD5 (Homo sapiens, UniProt P21918)", "inhibition": "5.24%"}
{"data": "Block 3", "Structure (SMILES)": "CNC(=O)c1ccc(-c2cnn3ccc(C(=O)N(C)c4ccc(Cl)c(C(=O)O)c4)cc23)cc1"}
{"target": "SLC6A4 (Homo sapiens, UniProt P31645)", "assay": "cell-free assay", "IC50 [µM]": "> 30"}
{"target": "CDK4 (Homo sapiens, UniProt P11802)", "assay": "enzyme activity, inhibitor", "IC50 [µM]": "> 30"}
{"target": "CAMK1 (Homo sapiens, UniProt Q14012)", "assay": "enzyme activity, inhibitor", "IC50 [µM]": "> 30"}
{"target": "AXL (Homo sapiens, UniProt P30530)", "assay": "enzyme activity, inhibitor", "IC50 [µM]": "> 30"}
{"target": "FGFR3 (Homo sapiens, UniProt P22607)", "assay": "enzyme activity, inhibitor", "IC50 [µM]": "> 30"}
{"target": "ABL1 (Homo sapiens, UniProt P00519)", "assay": "enzyme activity, inhibitor", "IC50 [µM]": "> 30"}
{"target": "IGF1R (Homo sapiens, UniProt P08069)", "assay": "enzyme activity, inhibitor", "IC50 [µM]": "> 30"}
{"target": "EIF2AK4 (Homo sapiens, UniProt Q9P2K8)", "assay": "enzyme activity, inhibitor", "IC50 [µM]": "> 30"}
{"target": "MAPK1 (Homo sapiens, UniProt P28482)", "assay": "enzyme activity, inhibitor", "IC50 [µM]": "> 30"}
{"data": "Further values, each from its own experiment", "target": "OGT, full length, His-tagged (human)", "method": "phage display, sequencing", "sample": "in vitro", "concentration": "1 µg OGT", "notes": "single substitutions, 15-mer displayed peptide, unchanged parent 6.14", "relative to": "input library", "reading": "higher = stronger binding", "starting sequence": "peptide; VAYPNSYMPKYQIST"}
{"Substitution": "VAYPNSYMPKNQIST [Y11N]", "fold enrichment [fold]": 0.563}
{"Substitution": "VAYTNSYMPKYQIST [P4T]", "fold enrichment [fold]": 8}
{"note": "A few entries again (block 1):"}
{"Substitution": "E395V", "oxyanion analog dissociation constant": "629 nM"}
{"Substitution": "K85G", "oxyanion analog dissociation constant": "793 nM"}
{"Substitution": "L396G", "oxyanion analog dissociation constant": "558 nM"}
{"Substitution": "T3G", "oxyanion analog dissociation constant": "602 nM"}
{"Substitution": "A335V", "oxyanion analog dissociation constant": "984 nM"}
